# Results of several laboratories.
# Each numbered part is a random draw from the data of one study; scales do not carry over between parts. Values joined by “and” are separate records of one study, mostly repeats; a detail may differ. Numbers after ± are the reported error.
# UniProt Q06124, sequence (whole entry, looked up): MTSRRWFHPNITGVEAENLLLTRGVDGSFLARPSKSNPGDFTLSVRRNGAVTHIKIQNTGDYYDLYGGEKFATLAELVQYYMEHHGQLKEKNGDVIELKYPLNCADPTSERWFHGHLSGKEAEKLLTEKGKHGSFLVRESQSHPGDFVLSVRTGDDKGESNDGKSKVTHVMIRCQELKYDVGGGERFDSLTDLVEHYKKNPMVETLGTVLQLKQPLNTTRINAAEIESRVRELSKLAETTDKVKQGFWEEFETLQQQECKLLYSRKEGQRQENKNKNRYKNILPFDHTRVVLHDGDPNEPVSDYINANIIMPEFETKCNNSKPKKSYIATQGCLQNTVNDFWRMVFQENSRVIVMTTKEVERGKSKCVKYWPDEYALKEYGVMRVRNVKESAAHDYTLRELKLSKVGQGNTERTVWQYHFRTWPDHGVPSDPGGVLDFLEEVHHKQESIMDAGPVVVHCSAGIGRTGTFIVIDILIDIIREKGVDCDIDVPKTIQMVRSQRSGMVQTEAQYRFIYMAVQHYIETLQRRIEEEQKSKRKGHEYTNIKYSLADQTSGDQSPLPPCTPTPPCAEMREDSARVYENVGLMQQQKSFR
# UniProt O43781, sequence (whole entry, looked up): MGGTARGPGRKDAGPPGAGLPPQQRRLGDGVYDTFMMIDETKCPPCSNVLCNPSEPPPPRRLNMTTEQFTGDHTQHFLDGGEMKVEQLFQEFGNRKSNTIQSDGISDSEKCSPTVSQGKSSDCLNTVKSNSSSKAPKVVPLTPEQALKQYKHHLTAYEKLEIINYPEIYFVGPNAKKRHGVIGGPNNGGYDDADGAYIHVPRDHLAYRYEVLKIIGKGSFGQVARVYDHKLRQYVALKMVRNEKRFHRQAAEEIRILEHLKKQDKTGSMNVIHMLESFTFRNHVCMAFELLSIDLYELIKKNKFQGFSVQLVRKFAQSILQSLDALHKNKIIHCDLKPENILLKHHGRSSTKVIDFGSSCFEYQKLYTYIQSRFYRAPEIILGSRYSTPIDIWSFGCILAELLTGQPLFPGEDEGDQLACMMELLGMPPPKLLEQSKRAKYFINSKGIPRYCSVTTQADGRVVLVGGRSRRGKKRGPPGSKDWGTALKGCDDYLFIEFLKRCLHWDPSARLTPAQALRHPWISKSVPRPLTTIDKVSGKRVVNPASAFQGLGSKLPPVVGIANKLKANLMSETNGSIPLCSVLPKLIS

# Series 1
# Cell line: MDA-MB-231
# Time: 72 h
SMILES,CC50
O=C(NCc1ccc(C(F)(F)F)cc1)c1cn(Cc2ccc(Cl)cc2)c2ccc(Oc3ccccc3)cc2c1=O,18 ± 2.45 µM
Cc1ccc(CNC(=O)c2cn(Cc3ccc(Cl)cc3)c3ccc(Oc4ccccc4)cc3c2=O)cc1,16.4 ± 0.42 µM
O=C(NCc1ccc(F)cc1)c1cn(Cc2ccc(C(F)(F)F)cc2)c2ccc(Oc3ccccc3)cc2c1=O,27.3 ± 8.25 µM
O=C(NCc1ccc(F)cc1)c1cn(Cc2ccc(F)cc2)c2ccc(Oc3ccccc3)cc2c1=O,32 ± 1.21 µM

# Further values, each from its own experiment
Compound,target or system,test,setting,measurement,result
C[C@H](Oc1nccc(-c2noc([C@@]3(C)CCCc4sc(N)c(C#N)c43)n2)n1)[C@@H]1CCCN1C,Caco-2,,,Papp (A to B),11 ×10⁻⁶ cm/s
C=CS(=O)(=O)Oc1ccccc1,"Tyrosine-protein phosphatase non-receptor type 11 (PTPN11, Homo sapiens, UniProt Q06124)","enzyme activity, covalent inhibitor",added: pNPP substrate,kinact/KI,211 M⁻¹ min⁻¹ and 221 M⁻¹ min⁻¹
C[C@H]1CN(C)CCCN1c1nccc(-c2noc([C@@]3(C)CCCc4sc(N)c(C#N)c43)n2)n1,Caco-2,,,Papp (A to B),21 ×10⁻⁶ cm/s
O=C(Nc1cc(-c2ccc(Cl)cc2)[nH]n1)C1CCCCC1,"Dual specificity tyrosine-phosphorylation-regulated kinase 3 (DYRK3, Homo sapiens, UniProt O43781)","enzyme activity, Dundee kinase panel",10 µM,remaining activity,87%

# A few entries again (series 1):
SMILES,CC50
O=C(NCc1ccc(F)cc1)c1cn(Cc2ccc(C(F)(F)F)cc2)c2ccc(Oc3ccccc3)cc2c1=O,27.3 ± 8.25 µM
